Published values gathered from unrelated publications.
Lines come from different studies, so protocols differ. Several values in a cell are separate wells, animals, samples, runs or records. ± gives the spread as reported.
rep main protease: Replicase polyprotein 1ab, main protease (rep, Severe acute respiratory syndrome coronavirus 2, UniProt P0DTD1)

Cc1cc(C)c(CNC(=O)c2cc(Cl)c3c(c2C)O[C@@](C)([C@H]2CC[C@H](N(C)C)CC2)O3)c(=O)[nH]1  patients with grade ≥3 TEAE (refers to: COVID-19; human patients; oral, 200 mg once daily, 1 day onset day 14): 0%
Cn1cnc(Cn2c(=O)[nH]/c(=N\c3cc4cn(C)nc4cc3Cl)n(Cc3cc(F)c(F)cc3F)c2=O)n1  Cmax (healthy Japanese adults, plasma; oral, 750 mg, day 1, multiple dosing, fasted, with: prednisolone): 33100 ng/mL
Cn1cnc(Cn2c(=O)[nH]/c(=N\c3cc4cn(C)nc4cc3Cl)n(Cc3cc(F)c(F)cc3F)c2=O)n1  Cmax (human, normal renal function; oral, 375 mg, single dose, geometric mean): 15500 ng/mL
Cc1ncc2n1-c1ccc(Cl)cc1C(c1ccccc1F)=NC2  AUC (healthy male humans, plasma; oral, dose not given, phase I DDI study, with: vericiguat): 96.4 ng·h/mL
CC[C@H](C)[C@H](NC(=O)[C@H](CC(C)C)NC(=O)[C@H](Cc1c[nH]c2ccccc12)NC(=O)[C@H](CCC(N)=O)NC(=O)[C@@H](NC(=O)[C@H](Cc1ccccc1)NC(=O)[C@H](C)NC(=O)[C@H](CCCCNC(=O)COCCOCCNC(=O)COCCOCCNC(=O)CC[C@H](NC(=O)CCCCCCCCCCCCCCCCCCC(=O)O)C(=O)O)NC(=O)[C@H](CCC(N)=O)NC(=O)[C@H](C)NC(=O)[C@@H](NC(=O)[C@H](CCCCN)NC(=O)[C@H](CC(=O)O)NC(=O)[C@H](CC(C)C)NC(=O)C(C)(C)NC(=O)[C@@H](NC(=O)[C@H](CO)NC(=O)[C@H](Cc1ccc(O)cc1)NC(=O)[C@H](CC(=O)O)NC(=O)[C@H](CO)NC(=O)[C@@H](NC(=O)[C@H](Cc1ccccc1)NC(=O)[C@@H](NC(=O)CNC(=O)[C@H](CCC(=O)O)NC(=O)C(C)(C)NC(=O)[C@@H](N)Cc1ccc(O)cc1)[C@@H](C)O)[C@@H](C)O)[C@@H](C)CC)[C@@H](C)CC)C(C)C)C(=O)N[C@@H](C)C(=O)NCC(=O)NCC(=O)N1CCC[C@H]1C(=O)N[C@@H](CO)C(=O)N[C@@H](CO)C(=O)NCC(=O)N[C@@H](C)C(=O)N1CCC[C@H]1C(=O)N1CCC[C@H]1C(=O)N1CCC[C@H]1C(=O)N[C@@H](CO)C(N)=O  subjects with adverse event (refers to: treatment-emergent catheter site erythema; healthy subjects; 1.5 mg, multiple ascending dose): 16.7%
CC(C)C(=O)OC[C@H]1O[C@@H](n2ccc(NO)nc2=O)[C@H](O)[C@@H]1O  remaining compound (rat plasma; 100 µM, 0.5 h, no CES inhibitor): 0%
C[C@H]1CN(C(=O)CC#N)[C@]12CCN(c1ncnc3[nH]ccc13)C2  participants with positive SARS-CoV-2 test (human; oral, 1.5 mg single dose): 0%
Cc1cn([C@H]2O[C@@H](CO[P@@](=O)(N[C@@H](C)C(=O)OC(C)C)Oc3ccccc3)[C@H](O)[C@H]2F)c(=O)[nH]c1=O  patients with TEAE (refers to: COVID-19 infection; human; 25 mg): 20%
C[C@@H]1Cc2c(Cl)cc(C(=O)N[C@@H](Cc3ccccc3)C(=O)O)c(O)c2C(=O)O1  body weight to egg weight ratio (chicken embryo; in ovo injection, 0.50 µg/egg): 72.2 ± 2.9
O=C[C@H](C[C@@H]1CCNC1=O)NC(=O)[C@H](CC1CCCCC1)NC(=O)c1cc2ccccc2[nH]1  AUC (rats, plasma; intravenous, 4 mg/kg): 3180 ng·h/mL
NC(=O)[C@@H](CCC(F)(F)F)N(Cc1ccc(-c2ncon2)cc1F)S(=O)(=O)c1ccc(Cl)cc1  inhibition (rep main protease; reporter gene (Gaussia luciferase), inhibitor; 20 µM): 0.683%
Cc1cc(C)c(CNC(=O)c2cc(Cl)c3c(c2C)O[C@@](C)([C@H]2CC[C@H](N(C)C)CC2)O3)c(=O)[nH]1  COVID-19 pneumonia incidence (human, relapsed/refractory NHL; concentration not given, all TEAEs, grade 4): 0%
CNC(=O)[C@@H](NC(=O)[C@H](CC(C)C)[C@H](O)C(=O)NO)C(C)(C)C  IC50 (snake venom metalloproteinase; proteolytic activity, inhibitor; Daboia russelii, venom KL; with: azocasein): 216 nM and 139 nM and 237 nM
CC(Nc1nc(N2CCN(C)CC2)nc2ccccc12)c1ccccc1 (stereo not shown)  efficacy (SARS-CoV-2; cytopathic effect, cell-based CPE; USA_WA1/2020; round 2, 5-point dilution): 120%
C[C@@H]1COCCN1c1cc(C2([S@](C)(=N)=O)CC2)nc(-c2cc[nH]c3nccc2-3)n1  COVID-19 incidence (Japanese advanced solid tumour patients; oral, 240 mg twice daily, CTCAE grade ≥3): 0%
CC(C)(C)[C@H](NC(=O)C(F)(F)F)C(=O)N1C[C@H]2[C@@H]([C@H]1C(=O)N[C@H](C#N)C[C@@H]1CCNC1=O)C2(C)C  participants discontinued due to adverse events (human, fasted; oral, 1500 mg single dose, 28 days, no ritonavir): 0%
C=CC(=O)N1CCC([C@@H]2CCNc3c(C(N)=O)c(-c4ccc(Oc5ccccc5)cc4)nn32)CC1  TEAE, positive test, SARS-CoV-2 (healthy human volunteers; 160 mg): 3.4%
CN1C(=N)N[C@](C)(c2cc(NC(=O)c3ccc(F)cn3)ccc2F)CS1(=O)=O  inhibition (rep main protease; reporter gene (mKate2), inhibitor; 20 µM): -0.623%
Nc1ncnc2c([C@@H]3N[C@H](CO)[C@@H](O)[C@H]3O)c[nH]c12  inhibition (Marburg virus; surface glycoprotein expression; HeLa, Musoke; 50 µM, 1 h): 91.1%

Excerpt of the above:
C=CC(=O)N1CCC([C@@H]2CCNc3c(C(N)=O)c(-c4ccc(Oc5ccccc5)cc4)nn32)CC1  TEAE, positive test, SARS-CoV-2 (healthy human volunteers; 160 mg): 3.4%
CN1C(=N)N[C@](C)(c2cc(NC(=O)c3ccc(F)cn3)ccc2F)CS1(=O)=O  inhibition (rep main protease; reporter gene (mKate2), inhibitor; 20 µM): -0.623%
Nc1ncnc2c([C@@H]3N[C@H](CO)[C@@H](O)[C@H]3O)c[nH]c12  inhibition (Marburg virus; surface glycoprotein expression; HeLa, Musoke; 50 µM, 1 h): 91.1%
